{"data": "Published values collected from several papers", "observed": "chemical stability", "note": "Compare with care: the assays were run in different laboratories."}
{"SMILES": "C[C@@H](O)[C@H](NC(=O)OP(=O)(O)OC[C@H]1O[C@@H](n2cnc3c(N)ncnc32)[C@H](O)[C@@H]1O)C(=O)O", "method": "HPLC", "medium": "aqueous buffer", "tested at": "10 µM", "pH": "pH 7.5", "half-life [h]": 0.157}
{"SMILES": "OC[C@H]1O[C@@H](OCCOCCOCC[N+]2(C[B-](F)(F)F)CCCCC2)[C@H](O)[C@@H](O)[C@@H]1O", "method": "NMR", "medium": "aqueous buffer", "tested at": "2 mg/mL", "pH": "pH 7.5", "half-life [h]": 24}
{"SMILES": "CC(=O)O[C@@H]1CC[C@@]2(C)C(CC[C@]3(C)C2C(=O)C=C2C4[C@@H](C)[C@H](C)CC[C@]4(C)CC[C@]23C)[C@@]1(C)C(=O)N/N=C1/C(=O)Nc2ccccc21 (stereo partly shown)", "method": "HPLC", "medium": "aqueous buffer", "tested at": "75 µM", "pH": "pH 7.4", "half-life [h]": 110}
{"SMILES": "CCOC(=O)CCC(=O)Oc1ccc(/C=C/C(=O)/C=C(O)/C=C/c2ccc(OC(=O)CCC(=O)OCC)c(OC)c2)cc1OC", "medium": "aqueous buffer", "pH": "pH 7.4", "half-life [h]": 8.32}
{"SMILES": "CO[C@@H](C[C@H]1C(C)=CC[C@@H]2[C@]3(C)C[C@H](O[C@@H]4O[C@@H](C)[C@H](O)[C@@H](O)[C@H]4O)[C@@H](O)C(C)(C)[C@H]3CC[C@]21C)[C@H](N)C(=O)O", "medium": "simulated intestinal fluid", "tested at": "1 µM", "pH": "pH 6.8", "half-life [h]": "> 8"}
{"SMILES": "Cn1nnc2c(C#N)ncn2c1=O", "method": "HPLC", "medium": "PBS", "pH": "pH 7.4", "half-life [h]": 0.5}
{"SMILES": "CC(=O)O[C@@H]1CC[C@@]2(C)C(CC[C@]3(C)C2C(=O)C=C2C4[C@@H](C)[C@H](C)CC[C@]4(C)CC[C@]23C)[C@@]1(C)C(=O)OCC(=O)Oc1cc(C)ccc1C(C)C (stereo partly shown)", "method": "HPLC", "medium": "aqueous buffer", "tested at": "75 µM", "pH": "pH 7.4", "half-life [h]": 20.9}
{"SMILES": "CCN(c1nc(N[C@H](CC(N)=O)C(=O)NC)nc(N2CCN(c3ccccc3C#N)CC2)n1)C1CCCCC1", "medium": "PBS", "half-life [h]": "> 4"}
{"SMILES": "CCCC[N+](CCCC)(CCOCCOCCO[C@@H]1O[C@H](CO)[C@@H](O)[C@H](O)[C@H]1O)C[B-](F)(F)F", "method": "NMR", "medium": "aqueous buffer", "tested at": "2 mg/mL", "pH": "pH 7.5", "half-life [h]": 72}
{"SMILES": "OB(O)c1sccc1/C=N/OCc1ccccc1", "medium": "PBS", "tested at": "80 µM", "pH": "pH 7.4", "half-life [h]": 2}
{"note": "Some of these lines once more:"}
{"SMILES": "Cn1nnc2c(C#N)ncn2c1=O", "method": "HPLC", "medium": "PBS", "pH": "pH 7.4", "half-life [h]": 0.5}
